# Published values pooled from the literature.
# Compare with care: the assays were run in different laboratories. Several values in a cell are separate wells, animals, samples, runs or records. ± marks the error that the study gave.
# folP: Dihydropteroate synthase (folP, Bacteria, UniProt P0AC13)
# UniProt P0AC13, sequence (whole entry, looked up): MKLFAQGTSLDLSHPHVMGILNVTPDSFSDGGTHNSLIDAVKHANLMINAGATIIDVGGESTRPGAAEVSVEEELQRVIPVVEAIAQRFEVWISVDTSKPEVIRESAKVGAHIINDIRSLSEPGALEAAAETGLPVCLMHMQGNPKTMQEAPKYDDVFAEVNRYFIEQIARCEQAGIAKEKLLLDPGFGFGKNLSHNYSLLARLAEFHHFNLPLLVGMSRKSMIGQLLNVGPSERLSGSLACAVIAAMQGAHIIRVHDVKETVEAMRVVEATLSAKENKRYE
# VSIR: V-type immunoglobulin domain-containing suppressor of T-cell activation (VSIR, Homo sapiens, UniProt Q9H7M9)
# UniProt Q13526, sequence (whole entry, looked up): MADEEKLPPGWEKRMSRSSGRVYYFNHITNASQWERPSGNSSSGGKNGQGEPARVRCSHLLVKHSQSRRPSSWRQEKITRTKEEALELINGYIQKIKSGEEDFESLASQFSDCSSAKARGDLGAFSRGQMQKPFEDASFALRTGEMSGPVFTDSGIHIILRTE
# UniProt P35222, sequence (141-305, looked up): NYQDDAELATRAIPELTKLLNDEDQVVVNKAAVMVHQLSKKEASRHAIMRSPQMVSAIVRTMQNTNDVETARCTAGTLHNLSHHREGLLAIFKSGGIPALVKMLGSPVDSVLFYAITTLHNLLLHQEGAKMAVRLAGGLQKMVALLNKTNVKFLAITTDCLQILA
# UniProt P35218, sequence (whole entry, looked up): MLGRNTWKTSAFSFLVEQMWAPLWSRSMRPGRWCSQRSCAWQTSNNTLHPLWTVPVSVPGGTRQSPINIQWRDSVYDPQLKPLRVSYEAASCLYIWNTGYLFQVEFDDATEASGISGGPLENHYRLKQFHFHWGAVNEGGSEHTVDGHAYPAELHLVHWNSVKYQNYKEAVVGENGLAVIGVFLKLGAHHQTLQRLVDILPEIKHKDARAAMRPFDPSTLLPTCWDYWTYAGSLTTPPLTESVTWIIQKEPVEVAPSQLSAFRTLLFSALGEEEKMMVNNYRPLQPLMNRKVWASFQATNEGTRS
# UniProt P08138, sequence (whole entry, looked up): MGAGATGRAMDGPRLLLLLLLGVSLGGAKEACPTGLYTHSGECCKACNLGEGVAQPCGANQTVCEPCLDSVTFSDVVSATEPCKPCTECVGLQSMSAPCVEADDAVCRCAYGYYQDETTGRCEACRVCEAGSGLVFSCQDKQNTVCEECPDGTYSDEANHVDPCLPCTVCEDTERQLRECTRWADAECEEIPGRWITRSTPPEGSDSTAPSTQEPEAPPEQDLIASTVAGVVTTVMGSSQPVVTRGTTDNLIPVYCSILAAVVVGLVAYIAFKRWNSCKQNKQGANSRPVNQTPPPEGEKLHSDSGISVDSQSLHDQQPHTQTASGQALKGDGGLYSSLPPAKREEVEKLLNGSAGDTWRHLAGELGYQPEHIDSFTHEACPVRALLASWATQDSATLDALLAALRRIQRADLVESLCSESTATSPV
# UniProt Q16881, sequence (whole entry, unmodified, looked up): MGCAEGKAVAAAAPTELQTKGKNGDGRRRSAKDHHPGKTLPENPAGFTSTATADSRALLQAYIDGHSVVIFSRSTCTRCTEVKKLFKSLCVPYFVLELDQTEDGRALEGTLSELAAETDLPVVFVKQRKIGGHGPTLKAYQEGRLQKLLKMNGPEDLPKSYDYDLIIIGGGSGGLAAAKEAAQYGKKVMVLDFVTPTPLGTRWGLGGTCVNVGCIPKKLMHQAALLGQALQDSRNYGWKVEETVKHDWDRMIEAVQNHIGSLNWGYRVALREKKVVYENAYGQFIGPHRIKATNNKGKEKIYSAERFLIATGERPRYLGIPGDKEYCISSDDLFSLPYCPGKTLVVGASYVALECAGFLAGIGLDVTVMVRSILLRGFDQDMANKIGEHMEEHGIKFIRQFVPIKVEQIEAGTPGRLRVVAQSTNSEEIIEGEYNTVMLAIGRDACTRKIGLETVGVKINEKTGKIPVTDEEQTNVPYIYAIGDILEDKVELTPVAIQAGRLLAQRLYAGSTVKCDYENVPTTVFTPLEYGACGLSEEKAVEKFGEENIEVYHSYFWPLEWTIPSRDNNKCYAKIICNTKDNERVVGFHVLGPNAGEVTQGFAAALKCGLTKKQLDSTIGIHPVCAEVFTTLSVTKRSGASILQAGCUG
# UniProt P54941, sequence (whole entry, looked up): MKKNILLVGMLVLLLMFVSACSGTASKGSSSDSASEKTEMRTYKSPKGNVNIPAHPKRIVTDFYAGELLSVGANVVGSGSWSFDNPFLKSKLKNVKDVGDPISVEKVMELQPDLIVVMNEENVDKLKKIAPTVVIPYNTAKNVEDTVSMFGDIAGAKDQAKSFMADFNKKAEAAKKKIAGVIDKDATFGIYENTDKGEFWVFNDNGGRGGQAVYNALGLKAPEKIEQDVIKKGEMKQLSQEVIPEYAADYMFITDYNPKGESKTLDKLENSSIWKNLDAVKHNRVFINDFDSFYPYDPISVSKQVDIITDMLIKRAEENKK
# UniProt P28566, sequence (whole entry, looked up): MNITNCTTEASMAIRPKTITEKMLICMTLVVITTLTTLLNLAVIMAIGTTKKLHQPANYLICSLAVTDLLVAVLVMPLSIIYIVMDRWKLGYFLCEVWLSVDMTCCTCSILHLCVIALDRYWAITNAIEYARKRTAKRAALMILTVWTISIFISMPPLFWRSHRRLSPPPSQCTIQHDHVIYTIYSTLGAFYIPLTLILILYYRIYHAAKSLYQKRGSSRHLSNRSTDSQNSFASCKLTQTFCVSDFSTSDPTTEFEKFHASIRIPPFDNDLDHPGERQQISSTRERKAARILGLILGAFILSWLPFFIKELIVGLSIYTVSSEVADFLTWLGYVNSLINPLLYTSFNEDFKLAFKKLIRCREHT
# UniProt Q9SZU7, sequence (whole entry, unmodified, looked up): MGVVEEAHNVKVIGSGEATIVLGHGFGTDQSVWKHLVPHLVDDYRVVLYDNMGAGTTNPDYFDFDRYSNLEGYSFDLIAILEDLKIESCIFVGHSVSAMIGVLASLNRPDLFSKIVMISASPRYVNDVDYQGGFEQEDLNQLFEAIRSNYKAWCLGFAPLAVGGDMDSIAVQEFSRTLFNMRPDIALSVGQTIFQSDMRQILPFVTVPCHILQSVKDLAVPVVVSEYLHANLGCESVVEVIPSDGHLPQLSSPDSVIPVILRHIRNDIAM
# UniProt P69687, sequence (whole entry, looked up): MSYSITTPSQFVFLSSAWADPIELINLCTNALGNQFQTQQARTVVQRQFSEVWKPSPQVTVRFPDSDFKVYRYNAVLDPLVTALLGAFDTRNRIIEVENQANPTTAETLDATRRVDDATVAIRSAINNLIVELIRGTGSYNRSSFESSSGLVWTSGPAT
# UniProt P51686, sequence (whole entry, looked up): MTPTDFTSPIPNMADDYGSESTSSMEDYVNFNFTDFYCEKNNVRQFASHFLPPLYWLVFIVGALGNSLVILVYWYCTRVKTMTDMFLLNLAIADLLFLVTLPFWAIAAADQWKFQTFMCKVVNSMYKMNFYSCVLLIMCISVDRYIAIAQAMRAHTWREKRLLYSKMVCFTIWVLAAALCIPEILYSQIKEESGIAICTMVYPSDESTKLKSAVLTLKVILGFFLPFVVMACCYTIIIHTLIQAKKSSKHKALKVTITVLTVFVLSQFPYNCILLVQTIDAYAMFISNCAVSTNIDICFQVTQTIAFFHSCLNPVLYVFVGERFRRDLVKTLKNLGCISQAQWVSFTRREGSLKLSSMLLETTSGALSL
# UniProt Q9UJS0, sequence (whole entry, looked up): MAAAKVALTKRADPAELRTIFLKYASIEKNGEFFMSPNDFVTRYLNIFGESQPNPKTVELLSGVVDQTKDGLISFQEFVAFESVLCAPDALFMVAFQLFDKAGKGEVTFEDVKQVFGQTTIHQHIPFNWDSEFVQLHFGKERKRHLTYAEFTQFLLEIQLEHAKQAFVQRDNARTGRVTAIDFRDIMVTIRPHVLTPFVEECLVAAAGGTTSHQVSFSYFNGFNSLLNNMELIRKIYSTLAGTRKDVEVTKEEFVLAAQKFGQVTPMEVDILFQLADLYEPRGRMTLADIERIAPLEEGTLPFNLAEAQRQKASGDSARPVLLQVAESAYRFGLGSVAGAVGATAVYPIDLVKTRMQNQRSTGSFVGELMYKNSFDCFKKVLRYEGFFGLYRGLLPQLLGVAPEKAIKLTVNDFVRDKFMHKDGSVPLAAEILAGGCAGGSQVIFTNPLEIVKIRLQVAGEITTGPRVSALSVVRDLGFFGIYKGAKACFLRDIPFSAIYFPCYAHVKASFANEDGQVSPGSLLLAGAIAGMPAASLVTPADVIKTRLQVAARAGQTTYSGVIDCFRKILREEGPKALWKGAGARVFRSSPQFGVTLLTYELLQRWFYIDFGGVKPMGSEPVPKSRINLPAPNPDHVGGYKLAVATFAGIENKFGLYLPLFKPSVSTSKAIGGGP
Compound,target,assay,system,conditions,Kd
Cn1cncc1C1=CN(c2ncnc3[nH]cnc23)CCS1(=O)=O,"cAMP-dependent protein kinase catalytic subunit alpha (PRKACA, Homo sapiens, UniProt P17612)",binding,,,> 200000 nM
Cn1nnnc1NCc1nn(C)c2nc(N)[nH]c(=O)c2c1=O,folP,"binding, SPR",,,21.7 nM
O=C(O)CCC(=O)N([O-])CCCCCNC(=O)CCC(=O)N([O-])CCCCCNC(=O)CCC(=O)N([O-])CCCCCO.[Fe+3],"Iron(3+)-hydroxamate-binding protein YxeB (yxeB, Bacillus subtilis, UniProt P54941)","binding, Trp fluorescence quenching",,"pH 7.4, together with: yxeB 100 nM",30 ± 5 nM
C[C@H](CCC(=O)NCCS(=O)(=O)O)[C@H]1CC[C@H]2[C@@H]3CC[C@@H]4C[C@H](OS(=O)(=O)O)CC[C@]4(C)[C@H]3CC[C@]12C,"Electrogenic aspartate/glutamate antiporter SLC25A13, mitochondrial (SLC25A13, Homo sapiens, UniProt Q9UJS0)","binding, ITC",,pH 6.5,101000 nM
O=c1c2ccccc2n(CC2CC2)c(=O)n1O,"Flap endonuclease 1 (Homo sapiens, UniProt P39748)",ITC,,"pH 7.5, 25 °C, together with: 8 mM Mg2+",194 nM
Cn1c2ccc(NC(=O)c3ccccc3)cc2c(=O)n2nc(C(=O)O)cc12,"Tumor necrosis factor receptor superfamily member 16 (Homo sapiens, UniProt P08138)","binding, SPR",,,175 nM
CC(C)C[C@H](NC(=O)[C@H](CC(=O)O)NC(=O)[C@@H](NC(=O)[C@H](CC(=O)O)NC(=O)CNC(=O)[C@H](CCC(=O)O)NC(=O)[C@H](CC(=O)O)NC(=O)CNC(=O)CCCC[C@@H]1SC[C@@H]2NC(=O)N[C@@H]21)[C@@H](C)O)C(=O)N[C@@H](Cc1ccc(OP(=O)(O)O)cc1)C(=O)N[C@@H](CC(=O)O)C(=O)N[C@@H](Cc1ccc(OP(=O)(O)O)cc1)C(=O)N[C@@H](Cc1ccc(OP(=O)(O)O)cc1)C(=O)N1CCC[C@H]1C(=O)N[C@@H](CCC(=O)O)C(=O)N[C@@H](CCC(=O)O)C(=O)N[C@@H](CC(=O)O)C(=O)N[C@H](C(N)=O)[C@@H](C)O,"Prothrombin, thrombin (F2, Homo sapiens, UniProt P00734, S568A)","binding, biolayer interferometry",,pH 7.4,1030 ± 50 nM
O=c1cc(-c2ccccc2)oc2c(OCCCCN3CCCC3)c(OCc3ccccc3)cc(O)c12,"Thioredoxin reductase 1, cytoplasmic (TXNRD1, Homo sapiens, UniProt Q16881, G442A)","binding, microscale thermophoresis",,,284000 nM
CCc1nc2cc3ccccc3cc2cc1C(=O)N[C@@H](CCCCN)C(=O)N[C@@H](C/C=C/C[C@H](NC(=O)[C@H](CCCCN)NC(=O)c1cc2cc3ccccc3cc2nc1CC)C(=O)N1CCC[C@H]1C(=O)NCCCN)C(=O)N1CCC[C@H]1C(=O)NCCCN,(CAG)10 RNA,SPR,,,228 nM
COc1ccccc1-c1nnc(SC(C)c2nnc(-c3cccs3)o2)o1 (racemic),VSIR,"binding, MST",,,490 nM
"CC1CCC(C(C)C)C(NC(=O)c2ccc(-c3ccccc3)cc2)C1 (single isomer, unassigned; (-))","Transient receptor potential cation channel subfamily M member 8 (TRPM8, Homo sapiens, UniProt Q7Z2W7)",19F NMR titration,LPPG micelles,37 °C,110 ± 30 mol %
CCCSC(SCCC)c1ccc(OCCNS(=O)(=O)c2ccccc2C(F)(F)F)c(OC)c1,"CP (Tobacco mosaic virus, UniProt P69687)","binding, MST",,,221000 nM
CCc1nc2cc3ccccc3cc2cc1C(=O)N1CCC[C@H]1C(=O)N[C@@H](CCC/C=C/CCC[C@H](NC(=O)[C@@H]1CCCN1C(=O)c1cc2cc3ccccc3cc2nc1CC)C(=O)N[C@@H](CCCCN)C(=O)NCCCN)C(=O)N[C@@H](CCCCN)C(=O)NCCCN,(CAG)10 RNA,SPR,,,846 nM
Cn1nc(C(=O)O)c(=O)c2c(=O)[nH]c(N)nc21,folP,"binding, SPR",,,7.66 nM
COc1cc(/C=N/Nc2ccc(C(=O)O)cc2)ccc1OS(=O)(=O)c1ccc(C)cc1,"5-hydroxytryptamine receptor 1E (HTR1E, Homo sapiens, UniProt P28566)",dynamic mass redistribution,HEK293 expressing HTR1E,,27.4 ± 2.3 nM
CCc1nc2cc3ccccc3cc2cc1C(=O)N1CCC[C@H]1C(=O)N[C@@H](C/C=C/C[C@H](NC(=O)[C@@H]1CCCN1C(=O)c1cc2cc3ccccc3cc2nc1CC)C(=O)N[C@@H](CCCCN)C(=O)NCCCN)C(=O)N[C@@H](CCCCN)C(=O)NCCCN,(CAG)10 RNA,SPR,,,66 nM
CCCCCCCCCCCCOc1c(O)cc(C(=O)OC2Cc3c(O)cc(O)cc3OC2c2cc(O)c(O)c(O)c2)cc1O (stereo not drawn),"Albumin (ALB, Homo sapiens, UniProt P02768)",tryptophan fluorescence quenching,,,1920 nM
CN1CCN(c2ccc3[nH]c(-c4ccc5[nH]c(-c6ccc(OCCCCNC(=O)c7cccc8c7C(=O)OC87c8ccc(N(C)C)cc8[Si](C)(C)c8cc(N(C)C)ccc87)cc6)nc5c4)nc3c2)CC1,hairpin DNA,"binding, fluorescence titration",PBS,"1 h, room temperature",5200 ± 900 nM
CCCCCCCC[C@H](NC(=O)[C@@H]1CSC([C@@H](N)[C@@H](C)CC)=N1)C(=O)N[C@H](CCC(=O)O)C(=O)N[C@H](C(=O)N[C@H]1CCCCNC(=O)[C@H](CC(N)=O)NC(=O)[C@@H](CC(=O)O)NC(=O)[C@H](Cc2c[nH]cn2)NC(=O)[C@@H](Cc2ccccc2)NC(=O)[C@H]([C@@H](C)CC)NC(=O)[C@@H](CCCN)NC1=O)[C@@H](C)CC,undecaprenyl pyrophosphate,"binding, isothermal titration calorimetry",phosphatidylcholine lipid vesicles,"pH 7.5, 25 °C, 0.3 mM zinc sulfate",11.6 ± 9.32 nM
O=C(NS(=O)(=O)c1cccs1)c1cc2ccccc2n1Cc1ccc(Br)c2ccccc12,"Solute carrier family 22 member 11 (SLC22A11, Homo sapiens, UniProt Q9NSA0)","binding, surface plasmon resonance",,,711 nM
Cn1ncc2cc(-c3cncc(Cl)c3N3CCC4(CCNC4=O)CC3)ccc21,MED20 human,SILAC competition,LS174T-L5 lysate,,9 nM
CN(C)c1ccc2c(-c3cc(C(=O)NCc4cn(CCOCCOCCOc5cc(C(=O)c6cc(Cl)ccc6NS(=O)(=O)c6ccc(C(C)(C)C)cc6)cc[n+]5[O-])nn4)ccc3C(=O)[O-])c3ccc(=[N+](C)C)cc-3oc2c1,"C-C chemokine receptor type 9 (CCR9, Homo sapiens, UniProt P51686)","binder, NanoBRET",HEK293T,,55.5 ± 4.1 nM
NCCCC[C@H](NC(=O)[C@H](C/C=C\C[C@H](NC(=O)[C@@H]1CCCN1)C(=O)N[C@@H](CCCCN)C(=O)NCCCN)NC(=O)[C@@H]1CCCN1)C(=O)NCCCN,(CAG)10 RNA,SPR,,,145 nM
Cn1nc(CC(=O)O)c(=O)c2c(=O)[nH]c(N)nc21,folP,"binding, SPR",,,3.21 nM
Cc1cccc2c1N(C(=O)n1ccnn1)CC2,"KAI2 (Arabidopsis thaliana, UniProt Q9SZU7, F26A)",ITC,,"F26A mutant, mean",193000 nM
CC1CCCN(CCCNC(=O)C2=Cc3sc4c(c3CS2)CCCC4)C1 (stereo not drawn),"Catenin beta-1, residues 141-305 (CTNNB1, Homo sapiens, UniProt P35222)","binding, isothermal titration calorimetry",,25 °C,1050 nM
Nc1nc2[nH]nc(CC(=O)O)c(=O)c2c(=O)[nH]1,folP,"binding, SPR",,,1.59 nM
CC(C)[C@H](NC(=O)[C@@H]1CCCN1C(=O)[C@@H](NC(=O)[C@H](CCCNC(=N)N)NC(=O)[C@@H]1CCCN1C(=O)[C@@H](NC(=O)OCC1c2ccccc2-c2ccccc21)C(C)C)[C@@H](C)OP(=O)(O)O)C(=O)NCC(=O)NCC(=O)NCC(=O)N[C@@H](CCCCN)C(N)=O,"Peptidyl-prolyl cis-trans isomerase NIMA-interacting 1, WW domain (PIN1, Homo sapiens, UniProt Q13526)","binding, competitive plate",,together with: 200 pM PIN1-HRP conjugate,66000 ± 10000 nM
CC(CC(=O)O)c1n[nH]c2nc(N)[nH]c(=O)c2c1=O (stereo not drawn),folP,"binding, SPR",,,47.2 nM
COC(=O)CCCNC(=O)c1cc(S(N)(=O)=O)c(Cl)cc1NC1CCCCC1,"Carbonic anhydrase 5A, mitochondrial (CA5A, Homo sapiens, UniProt P35218)",,,pH 7,100000 nM
Cn1nnnc1SCc1nn(C)c2nc(N)[nH]c(=O)c2c1=O,folP,"binding, SPR",,,56 nM
COc1ccc(C(N)=O)c[n+]1C,"Nicotinamide N-methyltransferase, SAH-bound (Rattus norvegicus, UniProt A0ABK0M0V0)","binding, surface plasmon resonance",,"37 °C, together with: SAH",200 nM
CC(C(=O)O)c1n[nH]c2nc(N)[nH]c(=O)c2c1=O (stereo not drawn),folP,"binding, SPR",,,5.83 nM
Cc1noc(C)c1CSc1nnc2nc(O)cc(N)n12,VSIR,"binding, MST",,,240 nM
C=C1C(=O)OC2C1CCC(C)(O)C13C=CC(C)(C21)C1(C3)C(=O)OC2C3C(C)C(=O)CC3C(=C)CC(OC(C)=O)C21 (stereo not drawn),"NAD-dependent protein deacetylase sirtuin-1 (SIRT1, Homo sapiens, UniProt Q96EB6)","binding, ITC",,,6170 nM
C=CC(=O)N1C[C@H](C)N(c2nc(OC[C@@]34CCCN3C[C@H](F)C4)nc3c(F)c(-c4ccc(F)c5sc(N)c(C#N)c45)c(C(F)(F)F)cc23)C[C@H]1C,"GTPase KRas, GDP-bound (KRAS, Homo sapiens, UniProt P01116)",SPR,,,1.4 nM
O=C(O)CCC(=O)C(=O)O,"Uncharacterized protein (Pelagibacter ubique, UniProt Q4FKX4)",isothermal titration calorimetry,Candidatus Pelagibacter ubique,,6.7 nM and 8.75 nM
CCCC[C@@H]1NC(=O)[C@H](Cc2ccc(O)cc2)NC(=O)[C@@H]2CCCN2C(=O)[C@H](CC(=O)O)NC(=O)[C@H](C)NC(=O)[C@H](Cc2ccccc2)NC(=O)[C@@H]2CSCCC(=O)N3CN(CN(C3)C(=O)CCSC[C@@H](C(=O)N[C@@H](C)C(N)=O)NC1=O)C(=O)CCSC[C@H](NC(C)=O)C(=O)N[C@@H](CC(C)(C)C)C(=O)N1CCC[C@H]1C(=O)N[C@@H](CCC(=O)O)C(=O)N[C@H](CCCCNC(=O)CCc1cn(CCOCCOCCOCCN(CCOCCOCCOCCC(=O)N[C@H]3CSCCC(=O)N4CN5CN(C4)C(=O)CCSC[C@H](NC(=O)[C@@H](CC(=O)O)NC(=O)[C@H](Cc4cccc6ccccc46)NC(=O)[C@@H]4CCCN4C3=O)C(=O)N[C@@H](CCSC)C(=O)N[C@@H](CCCCNC(=N)N)C(=O)N[C@@H](CC(=O)O)C(=O)N[C@@H](Cc3c[nH]c4ccccc34)C(=O)N[C@@H](CO)C(=O)N[C@@H]([C@@H](C)O)C(=O)N3CCC[C@H]3C(=O)N3C[C@H](O)C[C@H]3C(=O)N[C@@H](Cc3c[nH]c4ccccc34)C(=O)N[C@H](C(N)=O)CSCCC5=O)CCOCCOCCOCCn3cc(CCC(=O)NCCCC[C@H]4NC(=O)[C@H](CCC(=O)O)NC(=O)[C@@H]5CCCN5C(=O)[C@H](CC(C)(C)C)NC(=O)[C@@H](NC(C)=O)CSCCC(=O)N5CN6CN(C5)C(=O)CCSC[C@H](NC(=O)[C@H](Cc5ccc(O)cc5)NC(=O)[C@@H]5CCCN5C4=O)C(=O)N[C@@H](Cc4ccccc4)C(=O)N[C@@H](C)C(=O)N[C@@H](CC(=O)O)C(=O)N4CCC[C@H]4C(=O)N[C@@H](Cc4ccc(O)cc4)C(=O)N[C@@H](CCCC)C(=O)N[C@H](C(=O)N[C@@H](C)C(N)=O)CSCCC6=O)nn3)nn1)C(=O)N1CCC[C@H]1C(=O)N[C@@H](Cc1ccc(O)cc1)C(=O)N2,"Cell adhesion molecule 4 (CADM4, Homo sapiens, UniProt Q8NFZ8)",SPR,,,> 5000 nM
Cc1c[nH]c2nccc(-c3ccc(C(=O)N[C@@H]4c5c(F)cc(C(F)F)cc5C[C@@H]4O)cn3)c12,"cAMP-dependent protein kinase catalytic subunit PRKX (PRKX, Homo sapiens, UniProt P51817)","binding, competition with immobilised ligand",,,16.5 nM

# Excerpt of the above:
Compound,target,assay,system,conditions,Kd
Cn1nc(C(=O)O)c(=O)c2c(=O)[nH]c(N)nc21,folP,"binding, SPR",,,7.66 nM
COc1cc(/C=N/Nc2ccc(C(=O)O)cc2)ccc1OS(=O)(=O)c1ccc(C)cc1,"5-hydroxytryptamine receptor 1E (HTR1E, Homo sapiens, UniProt P28566)",dynamic mass redistribution,HEK293 expressing HTR1E,,27.4 ± 2.3 nM
CCc1nc2cc3ccccc3cc2cc1C(=O)N1CCC[C@H]1C(=O)N[C@@H](C/C=C/C[C@H](NC(=O)[C@@H]1CCCN1C(=O)c1cc2cc3ccccc3cc2nc1CC)C(=O)N[C@@H](CCCCN)C(=O)NCCCN)C(=O)N[C@@H](CCCCN)C(=O)NCCCN,(CAG)10 RNA,SPR,,,66 nM
CCCCCCCCCCCCOc1c(O)cc(C(=O)OC2Cc3c(O)cc(O)cc3OC2c2cc(O)c(O)c(O)c2)cc1O (stereo not drawn),"Albumin (ALB, Homo sapiens, UniProt P02768)",tryptophan fluorescence quenching,,,1920 nM
CN1CCN(c2ccc3[nH]c(-c4ccc5[nH]c(-c6ccc(OCCCCNC(=O)c7cccc8c7C(=O)OC87c8ccc(N(C)C)cc8[Si](C)(C)c8cc(N(C)C)ccc87)cc6)nc5c4)nc3c2)CC1,hairpin DNA,"binding, fluorescence titration",PBS,"1 h, room temperature",5200 ± 900 nM
CCCCCCCC[C@H](NC(=O)[C@@H]1CSC([C@@H](N)[C@@H](C)CC)=N1)C(=O)N[C@H](CCC(=O)O)C(=O)N[C@H](C(=O)N[C@H]1CCCCNC(=O)[C@H](CC(N)=O)NC(=O)[C@@H](CC(=O)O)NC(=O)[C@H](Cc2c[nH]cn2)NC(=O)[C@@H](Cc2ccccc2)NC(=O)[C@H]([C@@H](C)CC)NC(=O)[C@@H](CCCN)NC1=O)[C@@H](C)CC,undecaprenyl pyrophosphate,"binding, isothermal titration calorimetry",phosphatidylcholine lipid vesicles,"pH 7.5, 25 °C, 0.3 mM zinc sulfate",11.6 ± 9.32 nM
